Results pooled from the literature.
Each numbered part is a random draw from the data of one study; scales do not carry over between parts.

Block 1 — observed: enzyme activity; action: inhibitor; concentration: 20 µM
Target: Replicase polyprotein 1ab, polymerase (rep, Severe acute respiratory syndrome coronavirus 2, UniProt P0DTD1)
| SMILES | inhibition [%] |
| --- | --- |
| C[C@@H](O)[C@H]1C(=O)N2C(C(=O)O)=C([C@H]3CCCO3)S[C@H]12 | 2.84 |
| CCCCC(=O)NCCc1c(Cc2ccccc2)[nH]c2ccccc12 | -11.8 |
| CS(=O)(=O)OC[C@H](O)[C@@H](O)COS(C)(=O)=O | -1.75 |
| CC(C)(S)[C@@H](N)C(=O)O | 2.01 |
| Cc1cccc(-c2[nH]ncc2-c2ccc(F)c(-c3cnn(CCO)c3)c2)n1 | 4.68 |
| O=c1c(O)c(-c2ccc(O)cc2O)oc2cc(O)cc(O)c12 | 95.7 |
| CCCC[C@]1(CC)CS(=O)(=O)c2cc(CNC(CC(=O)O)CC(=O)O)c(OC)cc2[C@@H](c2ccccc2)N1 | 2.14 |
| C/N=C(/NC#N)NCCSCc1csc(NC(=N)N)n1 | 2.47 |
| O=c1cc(-c2ccc(O)cc2)oc2cc(O)cc(O)c12 | 3.36 |
| COc1cc(C(=O)NCCCCCC(=O)O)cc(OC)c1OC | -10.9 |
| CCCCCCCCc1ccc(-c2ccc(C(=O)O)cc2)cc1 | -0.52 |
| Cc1cc(NCCO)nc(-c2ccc(Br)cc2)n1 | 0.41 |
| O=C1CC2(CCCC2)CC(=O)N1CCCCN1CCN(c2ncccn2)CC1 | 1.98 |
| Cn1cc(-c2ccc3ncc(Cc4ccc5ncccc5c4)n3n2)cn1 | 1.91 |
| CN(C)C(=S)SSC(=S)N(C)C | -9.37 |
| COc1cc2c(cc1OC)CN(CCc1ccc(NC(=O)c3cc(OC)c(OC)cc3NC(=O)c3cnc4ccccc4c3)cc1)CC2 | -1.67 |
| CC[N+](C)(CC)CCC[n+]1c(-c2ccccc2)c2cc(N)ccc2c2ccc(N)cc21 | 102 |
| O=C1NCCNC1c1cccs1 (centres unmarked) | 3.08 |
| N#Cc1ccc2[nH]cc(CCCCN3CCN(c4ccc5oc(C(N)=O)cc5c4)CC3)c2c1 | 1.54 |
| C[C@@H]1CC2C3CCC4=CC(=O)C=C[C@]4(C)[C@@]3(F)[C@@H](O)C[C@]2(C)[C@H]1C(=O)CO (some centres unmarked) | -3.24 |
| CCn1nc(C(=O)O)c(=O)c2cc3c(cc21)OCO3 | -0.47 |
| O/N=C/c1ccc(-c2ccc(O)c(F)c2)c(Cl)c1O | -1.04 |
| CS(=O)(=O)CCNCc1ccc(-c2ccc3ncnc(Nc4ccc(OCc5cccc(F)c5)c(Cl)c4)c3c2)o1 | -6.53 |
| OC(CCCN1CCCCC1)(c1ccccc1)c1ccccc1 | -3.45 |
| CC[C@@H](CO)NCCN[C@@H](CC)CO | 8.32 |

Block 2 — method: RNA Bind-n-Seq; molecule type: RNA; sample: in vitro; concentration: 365 nM; baseline: no-protein control; reading: higher = stronger binding
Target: RNA binding protein fox-1 homolog 2, RRM domain, GST-SBP tag (RBFOX2, Homo sapiens, UniProt O43251-10, residues 100-194)
Notes: natural RNA segment, single round, ends assumed
Construct (chain): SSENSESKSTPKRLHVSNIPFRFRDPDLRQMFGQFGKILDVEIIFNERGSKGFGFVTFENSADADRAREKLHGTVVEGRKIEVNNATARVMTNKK
| Oligonucleotide | RBNS enrichment (R) |
| --- | --- |
| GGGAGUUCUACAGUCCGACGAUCCCCUCAAUGAGACUAAGACUUGUGUUGGCUUUUUAAUAUCCUAGUUAGAGAGAAAUUGUAGCACAUUUAAAUUAUUACUCUAAUACUCUUAGACGAUAGAUACCCAUAUUUGGAAUUCUCGGGUGCCAA | 0.314 |
| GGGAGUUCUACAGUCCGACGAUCCUGGAGAGUGUGUGUACCGUGUGCACUUGACUAAGGUCACAACAGAACGUUGUGUUGUAUUCUCCCCACCACCCUUCAACCUGAACUUCCUGCUACUGUCUCACAGAAGGUGGAAUUCUCGGGUGCCAA | 0.283 |
| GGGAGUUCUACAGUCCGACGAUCUGGAAUUCAGUAAGUGCAUAUCCUAACUUGCCCAUAUUCUAAAUCAUCUGGUUGGUUUUCAGCCUAGAAUUUGAUACGCUUUUUAGAAAUAUGCCCAGAAUAGAAAAGCUUGGAAUUCUCGGGUGCCAA | 0.5 |
| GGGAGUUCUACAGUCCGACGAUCUUAGAGAUCUGAAAACUCAUUAGAGAUGUUGAGUCUUAUCAAAUAAAAAGCAUGAGACAUCAUGGCCGUAAUGUCUUUGGGUGAUUUUUCCCCCUCUCCCUGGAUGUAGAUGGAAUUCUCGGGUGCCAA | 0.485 |
| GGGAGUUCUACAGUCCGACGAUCAGCCCUCUGAUCAGAGUGGAUGAGACCCUACAGAGGGCUGGCAGGAUUUACUAAUCUAGUGGAAUAUGCAUGGAUCAGACUGUGGCAUACAAGUCGUGCAGAGCAUGAAGUGGAAUUCUCGGGUGCCAA | 7.73 |
| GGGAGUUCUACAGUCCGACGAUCUAUUUCCUAUCUAACCUUCAAAUAGCUUCCAAUUCUUUUUUUCUUGGACUGGCUUCAUUCUGAAUUUGUGCUAAAAUAAUCUUUCAUAAAGAGACCUCAGUUUAUAGCGUUGGAAUUCUCGGGUGCCAA | 0.602 |
| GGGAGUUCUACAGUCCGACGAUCACUGCUGUAAUGCUAGUAUUUCAAAGUCUGAAGCAGGAGGACUCCCAUGAGGUUGAGGUUACCCUGGCUUAUGGAGCGACAGCCUGUCUCAGAGAAACAAGAGCACAAGUUGGAAUUCUCGGGUGCCAA | 0.471 |
| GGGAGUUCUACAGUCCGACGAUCCAAAGCGCCUUUACACAGGCCUCGGAAAACAAUGGAGUGAGCACAAGAUGCCCUGUGCAGCUGCCCGAGGGUCUCCGCCCACCCCGGCCGGACUUUGAUCCCCCCGAAGUUGGAAUUCUCGGGUGCCAA | 0.204 |

Block 3 — method: RNAcompete; molecule type: RNA; sample: in vitro; concentration: 20 nM; notes: 7-mer, probes averaged, single round; baseline: mean of 7-mers; reading: higher = stronger binding
Target: PABPC1L2, full length, GST fusion (mouse, UniProt A0ABA7IW68)
Target sequence (chain): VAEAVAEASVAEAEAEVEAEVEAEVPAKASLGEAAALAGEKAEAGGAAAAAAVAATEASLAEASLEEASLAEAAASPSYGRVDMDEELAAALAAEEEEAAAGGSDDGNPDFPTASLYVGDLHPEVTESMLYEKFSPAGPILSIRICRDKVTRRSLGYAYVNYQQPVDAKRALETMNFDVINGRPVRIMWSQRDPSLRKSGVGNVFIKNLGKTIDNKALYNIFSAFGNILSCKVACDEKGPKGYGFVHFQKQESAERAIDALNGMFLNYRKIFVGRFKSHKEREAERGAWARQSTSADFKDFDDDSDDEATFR
| Oligonucleotide | 7-mer Z-score |
| --- | --- |
| ACUCGAG | -0.197 |
| GGUUCAU | -0.26 |
| CCGCUGU | -0.289 |
| CAAUGGA | 0.0787 |
| UGGGGAC | 0.305 |
| GUCGUUU | -0.619 |
| UGGCCGU | -0.171 |
| AUCAUAU | -0.0319 |

Block 4 — organism: SARS-CoV-2; observed: cytopathic effect; cell line: Vero E6; concentration: 10 µM
| Structure (SMILES) | inhibition [%] |
| --- | --- |
| CC[C@]12C=CCN3CC[C@@]4(c5cc([C@@]6(C(=O)OC)C[C@@H]7C[C@@H](C(C)(F)F)C[N@](CCc8c6[nH]c6ccccc86)C7)c(OC)cc5N(C)[C@H]4[C@@](O)(C(=O)OC)[C@@H]1OC(C)=O)[C@@H]32 | 0.6 |
| CCC(C)SSc1ncc[nH]1 (centres unmarked) | -0.7 |
| FC(F)(F)c1cc(NC(=S)Nc2ccc(Br)cc2-c2nnn[nH]2)cc(C(F)(F)F)c1 | 25.4 |

Block 5 — method: protein binding microarray; molecule type: double-stranded DNA, one strand shown; sample: in vitro; concentration: not given; baseline: not given; reading: higher = stronger binding
Target: Histone acetyltransferase KAT6A, winged helix 1, GST fusion (KAT6A, Homo sapiens, UniProt Q92794, residues 1-85)
Notes: 8-mer, flanks averaged, mean of 2 arrays, mostly near background
Residues (chain): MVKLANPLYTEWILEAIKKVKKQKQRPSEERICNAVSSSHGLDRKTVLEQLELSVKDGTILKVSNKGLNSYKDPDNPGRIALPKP
| Oligonucleotide | E-score |
| --- | --- |
| TCGTGAAA | -0.0652 |
| CAGACAGC | -0.0901 |
| ATAACATG | 0.0144 |
| AGAAGTAC | -0.0666 |
| CGACATTA | 0.0166 |
| GCTGTTGA | -0.00186 |
| CATACGCC | 0.163 |
| TACCCATA | -0.21 |

Block 6 — cell line: HEK-293T; observed: pseudovirus infection; method: FDA-approved drug library screen; organism: VSV pseudotyped with SARS-CoV-2 spike; concentration: 10 µM; time: 16 h; baseline: vehicle-treated
| Compound | GFP-positive cells [%] |
| --- | --- |
| CC[C@H](C)C(=O)O[C@H]1C[C@H](O)C=C2C=C[C@H](C)[C@H](CC[C@@H](O)C[C@@H](O)CC(=O)O)[C@H]21 | 76.4 |
| Oc1ccc(OCc2ccccc2)cc1 | 65.2 |
| NC(=O)c1ncn([C@@H]2O[C@H](CO)[C@@H](O)[C@H]2O)n1 | 89.4 |
| Nc1nc2c(ncn2COCCO)c(=O)[nH]1 | 92.5 |

Excerpt of the above (block 3):
| Oligonucleotide | 7-mer Z-score |
| --- | --- |
| ACUCGAG | -0.197 |
| GGUUCAU | -0.26 |
| CCGCUGU | -0.289 |
